Measurements gathered from unrelated publications.
Each line is one published result; not all experiments were run side by side. Values joined by “and” are separate records of one study, mostly repeats; a detail may differ. Numbers after ± are the reported error.
Genome polyprotein NS3 helicase domain: Genome polyprotein, NS3 helicase domain (Hepatitis C virus genotype 1b, UniProt Q9WMX2)
Chain of UniProt P30530 (whole entry, looked up): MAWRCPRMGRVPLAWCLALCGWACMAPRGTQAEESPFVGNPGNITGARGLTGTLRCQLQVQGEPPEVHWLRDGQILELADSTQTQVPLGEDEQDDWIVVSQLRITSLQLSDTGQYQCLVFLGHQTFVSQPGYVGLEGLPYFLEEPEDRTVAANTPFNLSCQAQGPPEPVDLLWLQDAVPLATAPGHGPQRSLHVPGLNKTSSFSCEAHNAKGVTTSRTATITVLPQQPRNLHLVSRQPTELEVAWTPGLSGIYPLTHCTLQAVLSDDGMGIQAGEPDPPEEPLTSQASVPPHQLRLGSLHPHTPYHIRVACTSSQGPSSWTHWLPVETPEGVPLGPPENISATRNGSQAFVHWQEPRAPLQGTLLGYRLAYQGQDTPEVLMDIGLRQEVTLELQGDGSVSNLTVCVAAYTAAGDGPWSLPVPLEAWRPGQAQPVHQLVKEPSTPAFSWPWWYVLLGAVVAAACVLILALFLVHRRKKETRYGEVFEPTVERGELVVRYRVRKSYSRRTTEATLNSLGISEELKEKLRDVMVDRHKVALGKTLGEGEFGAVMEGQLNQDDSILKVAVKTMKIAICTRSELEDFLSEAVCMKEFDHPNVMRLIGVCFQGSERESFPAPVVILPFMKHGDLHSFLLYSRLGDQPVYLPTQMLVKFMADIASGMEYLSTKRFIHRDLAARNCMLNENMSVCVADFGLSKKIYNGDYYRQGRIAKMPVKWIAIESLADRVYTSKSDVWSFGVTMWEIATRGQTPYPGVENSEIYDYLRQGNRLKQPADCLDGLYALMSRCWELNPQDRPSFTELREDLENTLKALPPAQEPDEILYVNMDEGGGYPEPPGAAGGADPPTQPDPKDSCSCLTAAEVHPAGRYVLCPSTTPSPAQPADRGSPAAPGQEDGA
Chain of UniProt Q96P65 (whole entry, looked up): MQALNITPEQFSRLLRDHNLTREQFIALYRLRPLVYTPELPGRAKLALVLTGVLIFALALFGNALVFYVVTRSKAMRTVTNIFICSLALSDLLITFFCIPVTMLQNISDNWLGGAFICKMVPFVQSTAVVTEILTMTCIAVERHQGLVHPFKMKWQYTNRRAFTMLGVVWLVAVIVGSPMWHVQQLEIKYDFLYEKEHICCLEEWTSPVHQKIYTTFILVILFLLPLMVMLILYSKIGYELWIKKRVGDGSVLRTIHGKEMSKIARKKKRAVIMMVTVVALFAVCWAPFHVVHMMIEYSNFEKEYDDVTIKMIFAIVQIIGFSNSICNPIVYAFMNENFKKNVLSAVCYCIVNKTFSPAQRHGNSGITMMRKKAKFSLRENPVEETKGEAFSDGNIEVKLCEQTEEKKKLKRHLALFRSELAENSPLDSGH
Chain of UniProt P18089 (whole entry, looked up): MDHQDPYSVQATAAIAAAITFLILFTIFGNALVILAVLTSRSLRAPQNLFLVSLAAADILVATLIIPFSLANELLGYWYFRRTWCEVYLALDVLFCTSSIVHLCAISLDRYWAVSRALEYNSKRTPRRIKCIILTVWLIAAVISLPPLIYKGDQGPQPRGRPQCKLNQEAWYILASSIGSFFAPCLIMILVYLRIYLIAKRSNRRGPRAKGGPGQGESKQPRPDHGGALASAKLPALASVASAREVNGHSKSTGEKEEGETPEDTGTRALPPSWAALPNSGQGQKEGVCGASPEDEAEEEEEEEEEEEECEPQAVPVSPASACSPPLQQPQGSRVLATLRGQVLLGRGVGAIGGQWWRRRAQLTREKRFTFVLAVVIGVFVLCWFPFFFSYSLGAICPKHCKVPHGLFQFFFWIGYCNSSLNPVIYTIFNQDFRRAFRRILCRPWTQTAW
Chain of UniProt P25105 (whole entry, looked up): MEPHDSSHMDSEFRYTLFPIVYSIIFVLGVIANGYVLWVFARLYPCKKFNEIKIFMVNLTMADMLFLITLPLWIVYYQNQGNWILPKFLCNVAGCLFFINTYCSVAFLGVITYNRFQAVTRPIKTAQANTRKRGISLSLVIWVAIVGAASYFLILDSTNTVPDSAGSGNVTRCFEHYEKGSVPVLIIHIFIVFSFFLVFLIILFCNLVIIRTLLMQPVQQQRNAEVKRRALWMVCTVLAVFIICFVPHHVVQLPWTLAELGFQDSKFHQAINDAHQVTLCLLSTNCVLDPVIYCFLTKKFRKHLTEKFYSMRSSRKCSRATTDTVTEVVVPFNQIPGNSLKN

Structure (SMILES)	target	test	test system	conditions	scale	inhibition
CC[C@H](C)[C@H](NC(=O)[C@@H](NC(=O)[C@H](N)Cc1ccccc1)C(C)C)C(=O)N[C@@H](C)C(N)=O	Amyloid-beta precursor protein (APP, Homo sapiens, UniProt P05067)	amyloid-beta aggregation, thioflavin T fluorescence	–	0.5 µM, 96 h, added: 2 µM amyloid-beta	–	69.2%
O=C(NCc1ccc(C(F)(F)F)cc1)C1CC2CCC1C2 (stereo not drawn)	Trypanothione synthetase (Leishmania infantum, UniProt A4I2Z3)	enzyme activity	–	25 µM	–	27.7 ± 28.1%
O=c1ccc2ccccc2o1	Alpha-1A adrenergic receptor (ADRA1A, Homo sapiens, UniProt P35348)	antagonist radioligand binding	–	10 µM, SafetyScreen44	–	2.65%
O=[N+]([O-])c1cc(O)c(O)c([N+](=O)[O-])c1	Genome polyprotein NS3 helicase domain	DNA binding, inhibitor	hepatitis C virus	100 µM, added: Cy5-dT15 DNA	–	1%
O=C(Nc1cccnn1)N1CCC(=Cc2cccc(Oc3ccc(C(F)(F)F)cn3)c2)CC1	Pyroglutamylated RF-amide peptide receptor (QRFPR, Homo sapiens, UniProt Q96P65)	–	–	concentration not given	–	-1% and -4%
c1ccc(C(NCCNC(c2ccccc2)c2ccccc2)c2ccccc2)cc1	steroid 5alpha-reductase (rat)	Eurofins selectivity panel	–	10 µM	–	99%
CC(=O)NC[C@H]1[C@H](O)[C@H](O)[C@@H]2[C@H](O)C[C@@H](CO)N21	Spodoptera litura β-N-acetylglucosaminidase	–	crude enzyme	0.00157 µM, run 2, added: p-nitrophenyl GlcNAc	–	12%
C#C[C@]1(O)CC[C@H]2[C@@H]3CCC4=Cc5oncc5C[C@]4(C)[C@H]3CC[C@@]21C	Gag polyprotein, nucleocapsid protein p7 (gag, Human immunodeficiency virus type 1 group M subtype B, UniProt P04591)	NCp7-RNA binding, AlphaScreen	HIV-1	45 µM	–	> 50%
CN1CCN(c2cc(-c3ccncc3)c(-c3ccc4ccccc4c3)nn2)CC1	Neuromedin-U receptor 2 (NMUR2, Homo sapiens, UniProt Q9GZQ4)	antagonist, FLIPR	–	10 µM	–	-6.6%
Cc1ncc(CNC(=O)N(CCCl)N=O)c(N)n1	Genome polyprotein NS3 helicase domain	DNA binding, inhibitor	hepatitis C virus	100 µM, added: Cy5-dT15 DNA	–	2%
Cn1cccc1-c1cccnc1	Alpha-2B adrenergic receptor (ADRA2B, Homo sapiens, UniProt P18089)	binding	–	50 µM	–	-12.9%
C[N+]1(C)C2CCC1CC(OC(=O)c1c[nH]c3ccccc13)C2.[I-] (stereo not drawn)	Genome polyprotein NS3 helicase domain	DNA binding, inhibitor	hepatitis C virus	100 µM, added: Cy5-dT15 DNA	–	0%
FC(F)(F)c1cccc(Nc2nc(NCCOc3ccccc3)nc3[nH]cnc23)c1	Tyrosine-protein kinase receptor UFO (AXL, Homo sapiens, UniProt P30530)	enzyme activity, inhibitor, Thermo Fisher kinase screening	–	5 µM	–	9% and 20%
Cc1ncc(C)n2nc(/C=C/c3nc(N4CCCC4)cc(N4CCOCC4)n3)nc12	I1 receptor	binding	–	10 µM	–	-35%
CN(C(=O)n1cnc(-c2ccc[n+]([O-])c2)c1)C1CCCCC1	Melanocortin receptor 4 (MC4R, Homo sapiens, UniProt P32245)	binding	–	10 µM	–	4%
CN1C(=O)CCS(=O)(=O)C1c1ccc(Cl)cc1 (stereo not drawn)	Genome polyprotein NS3 helicase domain	DNA binding, inhibitor	hepatitis C virus	100 µM, added: Cy5-dT15 DNA	–	0%
CN1CCN(c2nc(N)c3ccccc3n2)CC1	5-hydroxytryptamine receptor 6 (HTR6, Homo sapiens, UniProt P50406)	radioligand binding, radioligand competition binding	–	0.1 µM, second replicate	relative to: control specific binding	6.3%
O=C(Nc1cccnn1)N1CCN([C@@H]2CCOc3cc(C(F)(F)F)ccc32)CC1	Platelet-activating factor receptor (PTAFR, Homo sapiens, UniProt P25105)	binding	–	20 µM	–	84%
C#Cc1n[nH]c2c(-c3cn([C@@H](C)c4ccccc4)c(=O)[nH]c3=O)cc(F)cc12	Tyrosine-protein kinase Lyn (LYN, Homo sapiens, UniProt P07948)	kinase activity, inhibitor	–	100 nM	–	0.7%
Br.CCCN(CCC)[C@@H]1CCc2ccc(O)cc2C1	Genome polyprotein NS3 helicase domain	DNA binding, inhibitor	hepatitis C virus	100 µM, added: Cy5-dT15 DNA	–	0%
COc1ccc(N2C(=O)N(c3c(C)cccc3Cl)Cc3cnc(Nc4ccc(C5CCN(C)CC5)cc4OC)nc32)nc1	Serine/threonine-protein kinase Sgk1 (SGK1, Homo sapiens, UniProt O00141)	kinase activity	–	0.5 µM	–	3.75%
Ic1cccc2cnccc12	central GABA-A receptor (rat)	benzodiazepine site binding, radioligand binding	–	10 µM, added: flunitrazepam	–	16%
COC(=O)C1=CCCN(C)C1	Genome polyprotein NS3 helicase domain	DNA binding, inhibitor	hepatitis C virus	100 µM, added: Cy5-dT15 DNA	–	0%
CN(CCN1CCC(OC(=O)Nc2ccccc2-c2ccccc2)CC1)C(=O)c1ccc(CN2CCC(C(N)=O)CC2)cc1	rat kainate receptor	radioligand binding	–	1 µM, added: [3H]kainic acid 5.0 nM	–	0%
CC[C@@]1(O)C(=O)OCc2c1cc1n(c2=O)Cc2cc3ccccc3nc2-1	Genome polyprotein NS3 helicase domain	DNA binding, inhibitor	hepatitis C virus	100 µM, added: Cy5-dT15 DNA	–	0%
CC(C)N1CCC[C@H]1CNC(=O)c1cn(C2CCCC2)c(=O)c2c1c1ccccc1n2C	Interleukin-1 receptor type 1 (Il1r1, Mus musculus, UniProt P13504)	radioligand binding	mouse	10 µM	–	-1%
COC(=O)c1ccc(C(=O)OC)c(NC(=O)CN2CCN(C(=O)COc3ccc4ccccc4c3)CC2)c1	uncharacterized protein (Erigeron canadensis, UniProt A0A8M0FGR5)	enzyme activity	–	100 mg/L	–	> 30%
O=C(Nc1cnccc1Cl)N1CCN(Cc2ccc3c(c2)OC(F)(F)O3)CC1	GABA transporter, rat	binding	–	10 µM, added: [3H]GABA	–	6%
COc1ccc2[nH]c3c(c2c1)CCNC3	Genome polyprotein NS3 helicase domain	DNA binding, inhibitor	hepatitis C virus	100 µM, added: Cy5-dT15 DNA	–	1%
COc1cc(Nc2ncc(F)c(Nc3ccc4c(n3)NC(=O)C(C)(C)O4)n2)cc(OC)c1OC	Calcium/calmodulin-dependent protein kinase kinase 1 (CAMKK1, Homo sapiens, UniProt Q8N5S9)	KINOMEscan	–	10 µM	–	38%

Some of these lines once more:
Structure (SMILES)	target	test	test system	conditions	scale	inhibition
COC(=O)c1ccc(C(=O)OC)c(NC(=O)CN2CCN(C(=O)COc3ccc4ccccc4c3)CC2)c1	uncharacterized protein (Erigeron canadensis, UniProt A0A8M0FGR5)	enzyme activity	–	100 mg/L	–	> 30%
Ic1cccc2cnccc12	central GABA-A receptor (rat)	benzodiazepine site binding, radioligand binding	–	10 µM, added: flunitrazepam	–	16%
CN1CCN(c2nc(N)c3ccccc3n2)CC1	5-hydroxytryptamine receptor 6 (HTR6, Homo sapiens, UniProt P50406)	radioligand binding, radioligand competition binding	–	0.1 µM, second replicate	relative to: control specific binding	6.3%
